Results gathered from unrelated publications.
Each numbered part is a random draw from the data of one study; scales do not carry over between parts. Several values in a cell are separate wells, animals, samples, runs or records.
Chain of UniProt O94804 (whole entry, looked up): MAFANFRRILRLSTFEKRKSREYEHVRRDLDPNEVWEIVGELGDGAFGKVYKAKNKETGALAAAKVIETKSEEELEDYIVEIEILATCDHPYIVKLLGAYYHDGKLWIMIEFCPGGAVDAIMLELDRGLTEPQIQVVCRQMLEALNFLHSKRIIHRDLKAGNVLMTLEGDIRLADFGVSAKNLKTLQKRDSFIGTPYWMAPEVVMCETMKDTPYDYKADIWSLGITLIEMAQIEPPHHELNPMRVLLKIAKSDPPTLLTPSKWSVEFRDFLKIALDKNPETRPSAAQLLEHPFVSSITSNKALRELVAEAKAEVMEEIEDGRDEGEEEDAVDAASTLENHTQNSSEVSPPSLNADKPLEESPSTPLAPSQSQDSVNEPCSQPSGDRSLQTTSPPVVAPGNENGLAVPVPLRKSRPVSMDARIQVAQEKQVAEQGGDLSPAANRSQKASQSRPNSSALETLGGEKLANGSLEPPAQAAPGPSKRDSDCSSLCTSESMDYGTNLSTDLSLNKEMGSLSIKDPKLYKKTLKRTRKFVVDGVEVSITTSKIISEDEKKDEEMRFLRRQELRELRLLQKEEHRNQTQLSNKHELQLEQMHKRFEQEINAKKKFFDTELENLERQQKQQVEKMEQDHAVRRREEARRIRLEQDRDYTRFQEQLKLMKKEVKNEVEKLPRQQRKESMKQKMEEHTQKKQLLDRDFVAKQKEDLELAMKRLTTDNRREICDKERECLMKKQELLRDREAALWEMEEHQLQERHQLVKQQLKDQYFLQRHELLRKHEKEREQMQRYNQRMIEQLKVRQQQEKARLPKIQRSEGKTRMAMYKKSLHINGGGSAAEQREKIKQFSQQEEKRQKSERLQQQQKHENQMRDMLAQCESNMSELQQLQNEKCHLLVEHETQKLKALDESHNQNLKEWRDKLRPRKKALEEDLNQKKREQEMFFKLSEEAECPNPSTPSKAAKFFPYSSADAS
Chain of UniProt Q6ZN16 (whole entry, looked up): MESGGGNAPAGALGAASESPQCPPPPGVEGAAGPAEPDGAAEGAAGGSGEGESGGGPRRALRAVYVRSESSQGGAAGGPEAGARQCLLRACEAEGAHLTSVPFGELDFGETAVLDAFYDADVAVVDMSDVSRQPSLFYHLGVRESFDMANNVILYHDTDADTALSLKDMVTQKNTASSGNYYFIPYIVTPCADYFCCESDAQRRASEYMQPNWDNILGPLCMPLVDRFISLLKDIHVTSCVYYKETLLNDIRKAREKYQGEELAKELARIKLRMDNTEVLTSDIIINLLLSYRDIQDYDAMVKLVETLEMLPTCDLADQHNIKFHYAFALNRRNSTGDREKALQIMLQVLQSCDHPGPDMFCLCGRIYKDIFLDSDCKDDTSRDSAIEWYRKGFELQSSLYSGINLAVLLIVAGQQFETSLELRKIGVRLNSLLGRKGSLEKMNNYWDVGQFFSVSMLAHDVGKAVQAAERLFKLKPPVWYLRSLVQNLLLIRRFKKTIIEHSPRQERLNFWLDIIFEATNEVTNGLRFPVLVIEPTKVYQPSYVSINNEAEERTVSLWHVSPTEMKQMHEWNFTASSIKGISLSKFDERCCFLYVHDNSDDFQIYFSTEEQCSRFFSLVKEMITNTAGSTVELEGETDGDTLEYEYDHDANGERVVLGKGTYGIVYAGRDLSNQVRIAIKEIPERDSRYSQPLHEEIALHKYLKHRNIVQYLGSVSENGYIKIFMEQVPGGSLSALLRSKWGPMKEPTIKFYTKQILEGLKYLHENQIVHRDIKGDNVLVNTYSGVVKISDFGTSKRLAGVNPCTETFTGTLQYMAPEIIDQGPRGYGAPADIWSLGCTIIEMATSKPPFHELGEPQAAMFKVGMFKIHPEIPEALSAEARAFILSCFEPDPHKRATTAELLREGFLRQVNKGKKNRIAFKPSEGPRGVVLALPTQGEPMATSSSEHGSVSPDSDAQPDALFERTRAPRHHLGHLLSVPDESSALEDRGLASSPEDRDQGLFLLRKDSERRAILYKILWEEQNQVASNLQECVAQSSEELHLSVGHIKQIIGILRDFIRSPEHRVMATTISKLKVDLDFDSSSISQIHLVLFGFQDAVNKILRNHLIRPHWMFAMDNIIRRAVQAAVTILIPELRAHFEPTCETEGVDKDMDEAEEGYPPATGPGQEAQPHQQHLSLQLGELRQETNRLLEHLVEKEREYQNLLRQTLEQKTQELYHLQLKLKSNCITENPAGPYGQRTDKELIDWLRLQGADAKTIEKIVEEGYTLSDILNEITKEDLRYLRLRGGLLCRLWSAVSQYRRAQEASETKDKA
Chain of UniProt P45984 (whole entry, looked up): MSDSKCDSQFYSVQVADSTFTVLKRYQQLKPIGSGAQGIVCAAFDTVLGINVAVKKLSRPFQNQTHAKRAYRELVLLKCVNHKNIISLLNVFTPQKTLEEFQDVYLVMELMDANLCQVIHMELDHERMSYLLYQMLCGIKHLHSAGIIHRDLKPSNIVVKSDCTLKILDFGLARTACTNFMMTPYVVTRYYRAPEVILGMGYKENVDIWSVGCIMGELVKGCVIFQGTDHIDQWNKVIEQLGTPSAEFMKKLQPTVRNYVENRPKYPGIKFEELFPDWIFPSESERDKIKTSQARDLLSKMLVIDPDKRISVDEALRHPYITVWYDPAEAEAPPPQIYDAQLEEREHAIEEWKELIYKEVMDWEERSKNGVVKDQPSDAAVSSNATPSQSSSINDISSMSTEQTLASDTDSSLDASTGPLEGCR
Chain of UniProt Q96RR4 (whole entry, looked up): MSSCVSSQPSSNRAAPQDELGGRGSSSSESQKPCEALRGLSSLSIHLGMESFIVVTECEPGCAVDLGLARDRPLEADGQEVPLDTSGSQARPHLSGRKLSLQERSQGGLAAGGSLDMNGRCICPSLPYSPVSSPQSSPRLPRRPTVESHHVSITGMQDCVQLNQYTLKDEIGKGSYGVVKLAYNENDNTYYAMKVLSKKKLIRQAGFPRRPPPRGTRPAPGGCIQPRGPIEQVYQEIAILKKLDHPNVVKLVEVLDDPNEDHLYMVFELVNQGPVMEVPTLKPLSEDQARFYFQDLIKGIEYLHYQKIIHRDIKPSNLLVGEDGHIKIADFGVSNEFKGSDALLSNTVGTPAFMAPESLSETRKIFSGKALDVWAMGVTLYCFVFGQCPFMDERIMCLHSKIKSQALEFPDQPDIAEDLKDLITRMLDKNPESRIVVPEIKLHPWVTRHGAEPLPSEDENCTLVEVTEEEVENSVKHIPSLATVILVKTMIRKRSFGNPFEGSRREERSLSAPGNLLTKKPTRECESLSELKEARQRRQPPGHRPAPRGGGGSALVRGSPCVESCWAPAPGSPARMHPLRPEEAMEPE
Chain of UniProt O75716 (whole entry, looked up): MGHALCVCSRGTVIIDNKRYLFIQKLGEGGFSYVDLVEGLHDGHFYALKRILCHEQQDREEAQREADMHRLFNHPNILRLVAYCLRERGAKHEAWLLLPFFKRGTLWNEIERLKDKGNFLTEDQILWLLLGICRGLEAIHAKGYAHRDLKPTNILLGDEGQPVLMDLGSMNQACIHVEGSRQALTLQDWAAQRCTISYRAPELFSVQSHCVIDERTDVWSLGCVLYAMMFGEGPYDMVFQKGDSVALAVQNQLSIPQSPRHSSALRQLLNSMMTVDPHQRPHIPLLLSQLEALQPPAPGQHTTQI
Chain of UniProt P07948 (whole entry, looked up): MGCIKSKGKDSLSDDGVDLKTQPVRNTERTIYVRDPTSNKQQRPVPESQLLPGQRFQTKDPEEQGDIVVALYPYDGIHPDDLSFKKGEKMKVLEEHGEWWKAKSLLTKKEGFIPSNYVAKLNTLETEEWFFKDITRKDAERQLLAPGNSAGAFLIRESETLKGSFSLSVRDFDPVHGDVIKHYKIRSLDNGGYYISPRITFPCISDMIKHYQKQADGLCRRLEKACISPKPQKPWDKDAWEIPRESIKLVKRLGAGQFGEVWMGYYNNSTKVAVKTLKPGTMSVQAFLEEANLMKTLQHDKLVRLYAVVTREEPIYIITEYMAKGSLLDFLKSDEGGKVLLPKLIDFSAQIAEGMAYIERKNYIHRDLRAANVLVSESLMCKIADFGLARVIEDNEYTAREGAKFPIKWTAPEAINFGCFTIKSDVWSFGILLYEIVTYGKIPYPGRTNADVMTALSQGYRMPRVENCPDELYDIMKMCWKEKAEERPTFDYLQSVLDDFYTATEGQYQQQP
Chain of UniProt P05771 (whole entry, looked up): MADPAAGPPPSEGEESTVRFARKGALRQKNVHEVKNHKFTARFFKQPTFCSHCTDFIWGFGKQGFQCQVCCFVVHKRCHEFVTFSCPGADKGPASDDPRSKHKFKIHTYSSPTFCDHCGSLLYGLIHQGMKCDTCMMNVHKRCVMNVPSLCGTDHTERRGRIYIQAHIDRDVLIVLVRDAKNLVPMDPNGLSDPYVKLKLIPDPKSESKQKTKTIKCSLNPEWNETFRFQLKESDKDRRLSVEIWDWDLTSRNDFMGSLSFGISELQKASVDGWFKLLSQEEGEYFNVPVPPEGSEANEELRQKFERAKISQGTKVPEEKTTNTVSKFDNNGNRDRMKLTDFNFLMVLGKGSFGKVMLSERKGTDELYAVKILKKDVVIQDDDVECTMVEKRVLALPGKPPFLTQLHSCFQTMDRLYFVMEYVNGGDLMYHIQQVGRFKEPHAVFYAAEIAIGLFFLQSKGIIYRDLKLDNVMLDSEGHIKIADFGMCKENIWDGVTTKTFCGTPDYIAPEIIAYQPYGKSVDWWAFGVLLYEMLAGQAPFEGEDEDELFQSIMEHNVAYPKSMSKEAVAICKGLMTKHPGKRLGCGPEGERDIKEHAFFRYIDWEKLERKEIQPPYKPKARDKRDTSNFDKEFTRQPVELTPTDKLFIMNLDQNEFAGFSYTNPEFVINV

Sample 1
Cell line: HaCaT
Concentration: 100 µM
Time: 36 h
Structure (SMILES)	viability
CNCCC=C1c2ccccc2CCc2ccccc21	5.13%
CO[C@H]1C[C@@H]2CC[C@@H](C)[C@@](O)(O2)C(=O)C(=O)N2CCCC[C@H]2C(=O)O[C@H]([C@H](C)C[C@@H]2CC[C@@H](OC(=O)C(C)(CO)CO)[C@H](OC)C2)CC(=O)[C@H](C)/C=C(\C)[C@@H](O)[C@@H](OC)C(=O)[C@H](C)C[C@H](C)/C=C/C=C/C=C/1C	7.11%
COCC(=O)Nc1c(I)c(C(=O)NCC(O)CO)c(I)c(C(=O)N(C)CC(O)CO)c1I (mixture of isomers)	100%
COC(=O)C1=CO[C@@H](O[C@@H]2O[C@H](CO)[C@@H](O)[C@H](O)[C@H]2O)[C@@H]2C(CO)=CC[C@H]12	84.9%
COc1ccc2cccc(CCNC(C)=O)c2c1	51.8%
CCCCCNC(=N)N/N=C/c1c[nH]c2ccc(OC)cc12	6.56%
NS(=O)(=O)c1cc2c(cc1Cl)NCNS2(=O)=O	82.4%
CCCc1nc(C(C)(C)O)c(C(=O)OCc2oc(=O)oc2C)n1Cc1ccc(-c2ccccc2-c2nnn[nH]2)cc1	100%

Sample 2
SMILES: COc1cc(-c2cn(C3CCc4ccccc4N(CC(F)(F)F)C3=O)nn2)ccc1-n1ccc(C)n1 (stereo not shown)
Technique: competition with immobilised ligand
Concentration: 1 µM
target	test	remaining binding
Receptor-type tyrosine-protein kinase FLT3, autoinhibited (FLT3, Homo sapiens, UniProt P36888)	cell-free assay	89%
STK36 (Homo sapiens, UniProt Q9NRP7)	cell-free assay	79%
WNK3 (Homo sapiens, UniProt Q9BYP7)	cell-free assay	100%
FLT3 (Homo sapiens, UniProt P36888, D835H)	cell-free assay	100%
WEE1 (Homo sapiens, UniProt P30291)	cell-free assay	100%
EPHA8 (Homo sapiens, UniProt P29322)	cell-free assay	100%
CDKL1 (Homo sapiens, UniProt Q00532)	binding	97%
STK16 (Homo sapiens, UniProt O75716)	cell-free assay	100%
SRPK1 (Homo sapiens, UniProt Q96SB4)	cell-free assay	100%
MYLK4 (Homo sapiens, UniProt Q86YV6)	cell-free assay	100%
PIK3CA (Homo sapiens, UniProt P42336, Q546K)	cell-free assay	97%
MAP3K15 (Homo sapiens, UniProt Q6ZN16)	cell-free assay	84%
MAP3K19 (Homo sapiens, UniProt Q56UN5)	cell-free assay	95%
FGFR1 (Homo sapiens, UniProt P11362)	cell-free assay	99%

Sample 3
SMILES: Ic1cccc(CSc2nnc(-c3ccncc3)o2)c1
Observed: enzyme activity
Mode: inhibitor
Concentration: 0.5 µM
Baseline: control
target	remaining activity [%]
OXSR1 (Homo sapiens, UniProt O95747)	105
Cyclin-dependent kinase 4, with cyclin D1 (CDK4, Homo sapiens, UniProt P11802)	96.3
TGFBR2 (Homo sapiens, UniProt P37173)	121
PRKACA (Homo sapiens, UniProt P17612)	94.6
IKBKB (Homo sapiens, UniProt O14920)	89.3
IKBKE (Homo sapiens, UniProt Q14164)	102
STK10 (Homo sapiens, UniProt O94804)	93.8
MAP3K3 (Homo sapiens, UniProt Q99759)	89.6
MAPK9 (Homo sapiens, UniProt P45984)	108
CAMK2D (Homo sapiens, UniProt Q13557)	96.8
Protein kinase C beta type, isoform beta-I (PRKCB, Homo sapiens, UniProt P05771)	97.5
GRK3 (Homo sapiens, UniProt P35626)	103
Tyrosine-protein kinase Lyn, isoform B (LYN, Homo sapiens, UniProt P07948)	99.6
NEK2 (Homo sapiens, UniProt P51955)	100
CHEK2 (Homo sapiens, UniProt O96017)	102
CAMKK2 (Homo sapiens, UniProt Q96RR4)	85.1
TGFBR1 (Homo sapiens, UniProt P36897)	94.4
DAPK2 (Homo sapiens, UniProt Q9UIK4)	108
Cyclin-dependent kinase 5, with p25 (CDK5, Homo sapiens, UniProt Q00535)	90.5
DAPK1 (Homo sapiens, UniProt P53355)	90.3
cGMP-dependent protein kinase 1, isoform beta (PRKG1, Homo sapiens, UniProt Q13976)	95.5
PRKCA (Homo sapiens, UniProt P17252)	123

Mixed results
Organism: Leishmania donovani
Observed: parasite growth
Technique: imaging
Cell line: THP-1
Setting: intracellular, amastigote
Structure (SMILES)	setting	inhibition
CCCCCCCCCCCCCCCCOP(=O)([O-])OCC[N+](C)(C)C	2 µM	61% and 35% and 52% and 51% and 57%
C[C@@H]1[C@H](O)[C@@H](C)/C=C/C=C/C=C/C=C/C=C/C=C/C=C/[C@H](O[C@@H]2O[C@H](C)[C@@H](O)[C@H](N)[C@@H]2O)C[C@@H]2O[C@](O)(C[C@@H](O)C[C@@H](O)[C@H](O)CC[C@@H](O)C[C@@H](O)CC(=O)O[C@H]1C)C[C@H](O)[C@H]2C(=O)O	2 nM	0%

For quick reference, copied from above (sample 3):
target	remaining activity [%]
TGFBR1 (Homo sapiens, UniProt P36897)	94.4
MAPK9 (Homo sapiens, UniProt P45984)	108
OXSR1 (Homo sapiens, UniProt O95747)	105
TGFBR2 (Homo sapiens, UniProt P37173)	121
